Published values from different studies.
Lines come from different studies, so protocols differ.
Target: Prostaglandin G/H synthase 1 (PTGS1, Ovis aries, UniProt P05979)
Sequence of UniProt P05979 (whole entry, looked up): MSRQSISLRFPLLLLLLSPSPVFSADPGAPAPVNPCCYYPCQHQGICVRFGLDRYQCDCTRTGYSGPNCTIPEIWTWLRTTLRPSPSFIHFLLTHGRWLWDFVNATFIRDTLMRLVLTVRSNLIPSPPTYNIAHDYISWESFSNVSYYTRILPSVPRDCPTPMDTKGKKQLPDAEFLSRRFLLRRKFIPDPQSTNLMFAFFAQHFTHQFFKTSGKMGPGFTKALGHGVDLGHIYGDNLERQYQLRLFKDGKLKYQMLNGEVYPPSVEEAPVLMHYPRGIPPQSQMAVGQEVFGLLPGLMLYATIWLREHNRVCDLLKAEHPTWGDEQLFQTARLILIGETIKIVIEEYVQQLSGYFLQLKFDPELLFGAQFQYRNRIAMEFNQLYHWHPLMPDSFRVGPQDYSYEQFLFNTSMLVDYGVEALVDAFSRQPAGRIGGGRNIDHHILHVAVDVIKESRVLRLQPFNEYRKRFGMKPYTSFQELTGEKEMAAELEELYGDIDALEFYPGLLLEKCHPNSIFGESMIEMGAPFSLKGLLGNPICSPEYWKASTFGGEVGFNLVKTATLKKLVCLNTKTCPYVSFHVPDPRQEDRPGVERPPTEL
Read-out: enzyme activity

Compound | assay | conditions | IC50 [µM]
O=C(NCc1ccccc1)/C(=C/c1cn(-c2ccccc2)nc1-c1ccccc1)NC(=O)c1ccc(Cl)cc1Cl | inhibitor, absorbance |  | 9.32
Fc1cc(Cl)c(Nc2ccccc2Cc2nnn[nH]2)c(Cl)c1 | inhibitor, fluorescence |  | > 100
c1ccc(-c2cc3ccccc3o/c2=N\c2cccnc2)cc1 | inhibitor |  | 0.0097
CCNC(=O)NC(=O)COC(=O)c1cn(-c2ccccc2)nc1-c1ccc(C)cc1C | inhibitor, absorbance |  | 8.42
COc1ccc(C(=O)CCc2cc(C(CCc3ccc(O)cc3OC)c3ccc(O)cc3)c(O)cc2OC)cc1 (racemic) | purified enzyme |  | > 10
Fc1ccc(/N=c2\oc3ccccc3cc2-c2ccccc2)cc1 | inhibitor |  | 0.0118
O=c1[nH]c(=S)[nH]c2c1C(c1cc(/N=N/c3cc(Cl)cc(Cl)c3)ccc1O)c1c([nH]c(=S)[nH]c1=O)N2 | inhibitor, ELISA |  | 7.52
C=Cc1ccc(/N=c2\oc3ccccc3cc2-c2ccccc2)cc1 | inhibitor |  | 0.0137
O=C(O)Cc1cc(F)ccc1Nc1c(Cl)cccc1Cl | inhibitor, fluorescence |  | 0.48
Clc1ccc(/N=c2\oc3ccccc3cc2-c2ccccc2)cc1 | inhibitor |  | 0.0109
O=c1[nH]c(=S)[nH]c2c1C(c1cc(/N=N/c3ccc(F)c(Cl)c3)ccc1O)c1c([nH]c(=S)[nH]c1=O)N2 | inhibitor, ELISA |  | 10.5
Cc1nc(N(C)C)nc(C)c1O | inhibitor | pH 8 | 10
Fc1ccc(Nc2c(Cl)cccc2Cl)c(Cc2nnn[nH]2)c1 | inhibitor, fluorescence |  | > 100
COc1ccc(/N=N/c2ccc(O)c(C3c4c([nH]c(=S)[nH]c4=O)Nc4[nH]c(=S)[nH]c(=O)c43)c2)cc1OC | inhibitor, ELISA |  | 4

For quick reference, copied from above:
Compound | assay | conditions | IC50 [µM]
O=c1[nH]c(=S)[nH]c2c1C(c1cc(/N=N/c3ccc(F)c(Cl)c3)ccc1O)c1c([nH]c(=S)[nH]c1=O)N2 | inhibitor, ELISA |  | 10.5
Clc1ccc(/N=c2\oc3ccccc3cc2-c2ccccc2)cc1 | inhibitor |  | 0.0109
